{"data": "Assay results gathered from unrelated publications", "T1": "NEMO 50-113 T50E/L55R/R75V/C76S/E78R/C95A/R106E/E110V; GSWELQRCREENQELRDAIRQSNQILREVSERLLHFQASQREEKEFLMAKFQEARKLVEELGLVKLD", "B1": "CCDC32 101-179 (Mus musculus, UniProt Q8BS39); chain LRTLAQAKKECWDRFLQEKLASEFFVDGLDSDERTLEHFKRWLQPDKVAISTEEVQFLIPPESQAEKPEAGDKPAAAEQ", "B2": "RBCK1 260-510 (Homo sapiens, UniProt Q9BYM8-1); chain GNYLQHVQLDQRSLVLNTEPAECPVCYSVLAPGEAVVLRECLHTFCRECLQGTIRNSQEAEVSCPFIDNTYSCSGKLLEREIKALLTPEDYQRFLDLGISIAENRSAFSYHCKTPDCKGWCFFEDDVNEFTCPVCFHVNCLLCKAIHEQMNCKEYQEDLALRAQNDVAARQTTEMLKVMLQQGEAMRCPQCQIVVQKKDGCDWIRCTVCHTEICWVTKGPRWGPGGPGDTSGGCRCRVNGIPCHPSCQNCH", "B3": "POL30 1-258 (Saccharomyces cerevisiae, UniProt P15873); chain MLEAKFEEASLFKRIIDGFKDCVQLVNFQCKEDGIIAQAVDDSRVLLVSLEIGVEAFQEYRCDHPVTLGMDLTSLSKILRCGNNTDTLTLIADNTPDSIILLFEDTKKDRIAEYSLKLMDIDADFLKIEELQYDSTLSLPSSEFSKIVRDLSQLSDSINIMITKETIKFVADGDIGSGSVIIKPFVDMEHPETSIKLEMDQPVDLTFGAKYLLDIIKGSSLSDRVGIRLSSEAPALFQFDLKSGFLQFFLAPKFNDEE", "B4": "TFC1 1-649 (Saccharomyces cerevisiae, UniProt P32367); chain MPVEEPLATLSSIPDSSADQAPPLIADEFTLDLPRIPSLELPLNVSTKHSSIQKAIKMCGGIEKVKEAFKEHGPIESQHGLQLYLNDDTDSDGSKSYFNEHPVIGKRVPFRDESVILKVTMPKGTLSKNNNSVKDSIKSLKDSNKLRVTPVSIVDNTIKFREMSDFQIKLDNVPSAREFKSSFGSLEWNNFKSFVNSVPDNDSQPQENIGNLILDRSVKIPSTDFQLPPPPKLSMVGFPLLYKYKANPFAKKKKNGVTEVKGTYIKNYQLFVHDLSDKTVIPSQAHEQVLYDFEVAKKTKVYPGTKSDSKFYESLEECLKILRELFARRPIWVKRHLDGIVPKKIHHTMKIALALISYRFTMGPWRNTYIKFGIDPRSSVEYAQYQTEYFKIERKLLSSPIVKKNVPKPPPLVFESDTPGGIDSRFKFDGKRIPWYLMLQIDLLIGEPNIAEVFHNVEYLDKANELTGWFKELDLVKIRRIVKYELGCMVQGNYEYNKYKLKYFKTMLFVKESMVPENKNSEEGMGVNTNKDADGDINMDAGSQMSSNAIEEDKGIAAGDDFDDNGAITEEPDDAALENEEMDTDQNLKVPASIDDDVDDVDADEEEQESFDVKTASFQDIINKIAKLDPKTAETMKSELKGFVDEVDL", "B5": "Ncoa1 260-369 (Mus musculus, UniProt P70365); sequence looked up; chain ESFMTKQDTTGKIISIDTSSLRAAGRTGWEDLVRKCIYAFFQPQGREPSYARQLFQEVMTRGTASSPSYRFILNDGTMLSAHTKCKLCYPQSPDMQPFIMGIHIIDREHS", "B6": "dnaA/forked oriC DNA ATP-bound (Escherichia coli); sequence looked up; chain MSLSLWQQCLARLQDELPATEFSMWIRPLQAELSDNTLALYAPNRFVLDWVRDKYLNNINGLLTSFCGADAPQLRFEVGTKPVTQTPQAAVTSNVAAPAQVAQTQPQRAAPSTRSGWDNVPAPAEPTYRSNVNVKHTFDNFVEGKSNQLARAAARQVADNPGGAYNPLFLYGGTGLGKTHLLHAVGNGIMARKPNAKVVYMHSERFVQDMVKALQNNAIEEFKRYYRSVDALLIDDIQFFANKERSQEEFFHTFNALLEGNQQIILTSDRYPKEINGVEDRLKSRFGWGLTVAIEPPELETRVAILMKKADENDIRLPGEVAFFIAKRLRSNVRELEGALNRVIANANFTGRAITIDFVREALRDLLALQEKLVTIDNIQKTVAEYYKIKVADLLSKRRSRSVARPRQMAMALAKELTNHSLPEIGDAFGGRDHTTVLHACRKIEQLREESHDIKEDFSNLIRTLSS", "B7": "OpcA C410S/C192S (Synechocystis sp. PCC 6803, UniProt P73720); sequence looked up; chain MGGKYQRHCPVRFHWSHCMSTTQAPPLVSLQAPKDVSLEAIESELAQIWQTSAQKEEGLIATRATTFSFLVYEPDRVQSLLAALGYYTGPIDGITGPRMTAAIKSAQKALGVTATGLSSPEFKQALQTAFETAHREGNLLSTAERITKPYSPDLEGSGIADTIAASNPCRIITLCPTAEDDQGVQAQLSAYSPIQKTHQNTLICCEYITLRGTSDALERIGGVITELMLPTLPKYVWWKASPEAEYGLFQRLLSHADMIIVDSSIFNNPEQDLLQLAQLVNKPEAIADLNWSRLAPWQELTAEAFDPPERRSAVGEIDQISIDYEKGNHAQALMYLGWVASRLQWTPVSYSYQPGVYEIHKIQFCAPNQRPIEAELAGLPLADTGQVLGDLISLKLGSTNTQAQCGTVLSSGTVGCMRMEAGGGAQNYRVQQVTALDDQNTEQLLGRQLQRWGRDALYDESMAIVLAILQLSQAG", "B8": "VIP1 (Arabidopsis thaliana, UniProt Q9MA75); phosphorylated by CPK21; sequence looked up; chain MEGGGRGPNQTILSEIEHMPEAPRQRISHHRRARSETFFSGESIDDLLLFDPSDIDFSSLDFLNAPPPPQQSQQQPQASPMSVDSEETSSNGVVPPNSLPPKPEARFGRHVRSFSVDSDFFDDLGVTEEKFIATSSGEKKKGNHHHSRSNSMDGEMSSASFNIESILASVSGKDSGKKNMGMGGDRLAELALLDPKRAKRILANRQSAARSKERKIRYTGELERKVQTLQNEATTLSAQVTMLQRGTSELNTENKHLKMRLQALEQQAELRDALNEALRDELNRLKVVAGEIPQGNGNSYNRAQFSSQQSAMNQFGNKTNQQMSTNGQPSLPSYMDFTKRG", "B9": "GP1BA 17-306 D235Y/M239V (Homo sapiens, UniProt P07359); sequence looked up; chain HPICEVSKVASHLEVNCDKRNLTALPPDLPKDTTILHLSENLLYTFSLATLMPYTRLTQLNLDRCELTKLQVDGTLPVLGTLDLSHNQLQSLPLLGQTLPALTVLDVSFNRLTSLPLGALRGLGELQELYLKGNELKTLPPGLLTPTPKLEKLSLANNNLTELPAGLLNGLENLDTLLLQENSLYTIPKGFFGSHLLPFAFLHGNPWLCNCEILYFRRWLQDNAENVYVWKQGVYVKAVTSNVASVQCDNSDKFPVYKYPGKGCPTLGDEGDTDLYDYYPEEDTEGDKVR", "B10": "NOTCH4 276-511 (Homo sapiens, UniProt Q99466); sequence looked up; chain NPDNCVSHQCQNGGTCQDGLDTYTCLCPETWTGWDCSEDVDECETQGPPHCRNGGTCQNSAGSFHCVCVSGWGGTSCEENLDDCIAATCAPGSTCIDRVGSFSCLCPPGRTGLLCHLEDMCLSQPCHGDAQCSTNPLTGSTLCLCQPGYSGPTCHQDLDECLMAQQGPSPCEHGGSCLNTPGSFNCLCPPGYTGSRCEADHNECLSQPCHPGSTCLDLLATFHCLCPPGLEGQLCE", "B11": "ELM1 (Saccharomyces cerevisiae, UniProt P32801); sequence looked up; chain MSPRQLIPTLIPEWAPLSQQSCIREDELDSPPITPTSQTSSFGSSFSQQKPTYSTIIGENIHTILDEIRPYVKKITVSDQDKKTINQYTLGVSAGSGQFGYVRKAYSSTLGKVVAVKIIPKKPWNAQQYSVNQVMRQIQLWKSKGKITTNMSGNEAMRLMNIEKCRWEIFAASRLRNNVHIVRLIECLDSPFSESIWIVTNWCSLGELQWKRDDDEDILPQWKKIVISNCSVSTFAKKILEDMTKGLEYLHSQGCIHRDIKPSNILLDEEEKVAKLSDFGSCIFTPQSLPFSDANFEDCFQRELNKIVGTPAFIAPELCHLGNSKRDFVTDGFKLDIWSLGVTLYCLLYNELPFFGENEFETYHKIIEVSLSSKINGNTLNDLVIKRLLEKDVTLRISIQDLVKVLSRDQPIDSRNHSQISSSSVNPVRNEGPVRRFFGRLLTKKGKKKTSGKGKDKVLVSATSKVTPSIHIDEEPDKECFSTTVLRSSPDSSDYCSSLGEEAIQVTDFLDTFCRSNESLPNLTVNNDKQNSDMKTDRSESSSHSSLKIPTPIKAMIRLKSSPKENGNRTHINCSQDKPSSPLMDRTVGKRTVNNSGARKLAHSSNILNFKAYINSEDSDIRETVEDVKTYLNFADNGQI", "B12": "SEC61B/FDFT1 /378-end 2-59 L401C/S39C (Homo sapiens); chain PGPTPSGTNVGSSGRSPSKAVAARAAGSTVRQRKNASSGTRSAGRTTSAGTGGMWRFYSRSHYSPIYLSFVMLLAALSWQYCTTLSQVTEDYVQTGEH", "B13": "CLNS1A 2-237 (Homo sapiens, UniProt P54105); sequence looked up; chain SFLKSFPPPGPAEGLLRQQPDTEAVLNGKGLGTGTLYIAESRLSWLDGSGLGFSLEYPTISLHALSRDRSDCLGEHLYVMVNAKFEEESKEPVADEEEEDSDDDVEPITEFRFVPSDKSALEAMFTAMCECQALHPDPEDEDSDDYDGEEYDVEAHEQGQGDIPTFYTYEEGLSHLTAEGQATLERLEGMLSQSVSSQYNMAGVRTEDSIRDYEDGMEVDTTPTVAGQFEDADVDH", "note": "Lines come from different studies, so protocols differ.", "UniProt P06959, sequence (whole entry, looked up)": "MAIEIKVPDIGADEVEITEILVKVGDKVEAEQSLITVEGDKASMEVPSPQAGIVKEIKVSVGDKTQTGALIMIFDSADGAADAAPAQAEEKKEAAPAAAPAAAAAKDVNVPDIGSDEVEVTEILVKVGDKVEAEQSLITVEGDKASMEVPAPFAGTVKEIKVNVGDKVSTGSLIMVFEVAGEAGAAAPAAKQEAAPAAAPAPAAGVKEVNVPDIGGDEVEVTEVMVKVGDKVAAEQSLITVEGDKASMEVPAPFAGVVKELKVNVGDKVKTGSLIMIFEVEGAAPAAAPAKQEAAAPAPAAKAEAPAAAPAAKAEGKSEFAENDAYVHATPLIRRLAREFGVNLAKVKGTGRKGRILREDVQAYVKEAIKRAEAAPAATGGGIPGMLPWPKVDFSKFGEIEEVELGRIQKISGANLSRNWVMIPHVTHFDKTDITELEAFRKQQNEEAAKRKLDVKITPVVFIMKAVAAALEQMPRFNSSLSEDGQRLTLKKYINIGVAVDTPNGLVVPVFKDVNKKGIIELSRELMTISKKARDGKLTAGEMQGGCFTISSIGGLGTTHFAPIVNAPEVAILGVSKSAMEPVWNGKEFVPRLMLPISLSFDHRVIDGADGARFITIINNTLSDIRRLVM", "UniProt P0AFG8, sequence (whole entry, looked up)": "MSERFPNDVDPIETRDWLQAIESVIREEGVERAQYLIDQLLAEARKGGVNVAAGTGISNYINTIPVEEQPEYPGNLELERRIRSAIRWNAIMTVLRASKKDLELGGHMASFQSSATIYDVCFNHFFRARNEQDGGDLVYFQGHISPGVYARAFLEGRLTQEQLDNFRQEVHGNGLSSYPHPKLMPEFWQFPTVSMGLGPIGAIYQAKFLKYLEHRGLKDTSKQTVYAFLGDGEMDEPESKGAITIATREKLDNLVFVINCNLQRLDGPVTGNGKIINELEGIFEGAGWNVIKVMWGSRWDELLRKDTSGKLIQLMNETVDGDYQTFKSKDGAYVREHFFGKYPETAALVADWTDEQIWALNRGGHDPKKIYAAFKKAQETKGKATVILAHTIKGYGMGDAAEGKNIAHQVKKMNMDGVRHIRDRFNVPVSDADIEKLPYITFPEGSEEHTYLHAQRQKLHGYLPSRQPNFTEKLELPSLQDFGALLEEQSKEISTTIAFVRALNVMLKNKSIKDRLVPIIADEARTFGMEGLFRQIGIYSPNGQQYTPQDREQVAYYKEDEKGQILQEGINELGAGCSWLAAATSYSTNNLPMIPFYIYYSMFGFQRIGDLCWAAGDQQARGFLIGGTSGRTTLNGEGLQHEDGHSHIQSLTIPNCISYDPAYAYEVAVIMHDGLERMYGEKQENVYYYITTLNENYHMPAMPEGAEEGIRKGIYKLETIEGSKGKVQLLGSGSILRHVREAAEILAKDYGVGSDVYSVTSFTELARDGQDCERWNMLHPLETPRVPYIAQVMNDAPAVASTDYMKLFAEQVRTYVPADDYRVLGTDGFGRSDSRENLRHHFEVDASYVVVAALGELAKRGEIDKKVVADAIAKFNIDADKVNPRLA", "UniProt P84091, sequence (whole entry, looked up)": "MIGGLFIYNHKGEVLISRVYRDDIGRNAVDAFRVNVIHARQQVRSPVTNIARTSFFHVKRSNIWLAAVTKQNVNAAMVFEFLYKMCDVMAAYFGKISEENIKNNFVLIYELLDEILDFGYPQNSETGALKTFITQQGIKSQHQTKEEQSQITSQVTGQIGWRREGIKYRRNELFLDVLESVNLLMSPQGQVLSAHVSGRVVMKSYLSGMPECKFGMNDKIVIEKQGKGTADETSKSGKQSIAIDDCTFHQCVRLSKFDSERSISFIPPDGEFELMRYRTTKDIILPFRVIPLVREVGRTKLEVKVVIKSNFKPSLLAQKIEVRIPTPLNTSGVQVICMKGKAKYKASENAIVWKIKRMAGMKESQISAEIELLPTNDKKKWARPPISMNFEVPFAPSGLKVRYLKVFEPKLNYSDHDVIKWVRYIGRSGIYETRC", "UniProt O95931, sequence (whole entry, unmodified, looked up)": "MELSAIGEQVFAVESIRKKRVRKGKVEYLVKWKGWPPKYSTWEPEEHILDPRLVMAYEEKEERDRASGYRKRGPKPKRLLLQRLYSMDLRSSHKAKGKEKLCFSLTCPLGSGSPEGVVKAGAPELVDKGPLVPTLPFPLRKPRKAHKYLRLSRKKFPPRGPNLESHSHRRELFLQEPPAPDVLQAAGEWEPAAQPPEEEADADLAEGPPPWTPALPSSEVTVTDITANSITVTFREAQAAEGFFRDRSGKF", "UniProt P73411, sequence (whole entry, looked up)": "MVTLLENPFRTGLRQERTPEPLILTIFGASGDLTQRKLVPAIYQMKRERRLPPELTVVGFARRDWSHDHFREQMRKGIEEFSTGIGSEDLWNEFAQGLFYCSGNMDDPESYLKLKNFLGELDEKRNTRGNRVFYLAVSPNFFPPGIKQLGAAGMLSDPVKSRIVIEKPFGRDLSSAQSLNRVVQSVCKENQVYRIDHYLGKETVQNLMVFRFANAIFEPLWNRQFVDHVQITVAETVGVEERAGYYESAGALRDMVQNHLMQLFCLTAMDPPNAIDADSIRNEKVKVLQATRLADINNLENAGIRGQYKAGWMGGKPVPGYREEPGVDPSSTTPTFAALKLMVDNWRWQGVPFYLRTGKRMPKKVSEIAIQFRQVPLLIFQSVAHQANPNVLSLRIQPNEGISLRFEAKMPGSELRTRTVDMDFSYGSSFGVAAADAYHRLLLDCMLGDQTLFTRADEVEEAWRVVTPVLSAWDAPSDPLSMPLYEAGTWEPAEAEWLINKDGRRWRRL", "UniProt Q9NR61, sequence (whole entry, unmodified, looked up)": "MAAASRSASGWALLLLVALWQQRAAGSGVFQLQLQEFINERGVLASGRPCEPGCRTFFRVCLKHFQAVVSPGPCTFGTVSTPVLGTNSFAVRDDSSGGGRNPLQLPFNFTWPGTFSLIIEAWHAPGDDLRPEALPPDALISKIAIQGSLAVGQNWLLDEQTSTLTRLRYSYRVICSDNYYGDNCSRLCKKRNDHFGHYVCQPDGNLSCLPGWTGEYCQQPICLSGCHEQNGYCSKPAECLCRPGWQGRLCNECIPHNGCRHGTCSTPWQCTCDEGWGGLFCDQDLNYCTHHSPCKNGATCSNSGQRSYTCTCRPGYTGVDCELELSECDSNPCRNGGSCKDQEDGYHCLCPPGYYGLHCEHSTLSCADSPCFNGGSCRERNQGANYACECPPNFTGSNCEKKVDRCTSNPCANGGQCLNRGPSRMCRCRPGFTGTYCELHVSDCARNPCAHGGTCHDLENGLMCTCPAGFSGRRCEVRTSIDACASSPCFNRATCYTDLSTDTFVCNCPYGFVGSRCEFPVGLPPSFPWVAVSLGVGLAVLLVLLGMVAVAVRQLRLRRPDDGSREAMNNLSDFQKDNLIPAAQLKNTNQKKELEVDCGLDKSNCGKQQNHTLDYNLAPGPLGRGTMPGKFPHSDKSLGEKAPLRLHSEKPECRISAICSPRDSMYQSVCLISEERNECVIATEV", "UniProt P49956, sequence (whole entry, looked up)": "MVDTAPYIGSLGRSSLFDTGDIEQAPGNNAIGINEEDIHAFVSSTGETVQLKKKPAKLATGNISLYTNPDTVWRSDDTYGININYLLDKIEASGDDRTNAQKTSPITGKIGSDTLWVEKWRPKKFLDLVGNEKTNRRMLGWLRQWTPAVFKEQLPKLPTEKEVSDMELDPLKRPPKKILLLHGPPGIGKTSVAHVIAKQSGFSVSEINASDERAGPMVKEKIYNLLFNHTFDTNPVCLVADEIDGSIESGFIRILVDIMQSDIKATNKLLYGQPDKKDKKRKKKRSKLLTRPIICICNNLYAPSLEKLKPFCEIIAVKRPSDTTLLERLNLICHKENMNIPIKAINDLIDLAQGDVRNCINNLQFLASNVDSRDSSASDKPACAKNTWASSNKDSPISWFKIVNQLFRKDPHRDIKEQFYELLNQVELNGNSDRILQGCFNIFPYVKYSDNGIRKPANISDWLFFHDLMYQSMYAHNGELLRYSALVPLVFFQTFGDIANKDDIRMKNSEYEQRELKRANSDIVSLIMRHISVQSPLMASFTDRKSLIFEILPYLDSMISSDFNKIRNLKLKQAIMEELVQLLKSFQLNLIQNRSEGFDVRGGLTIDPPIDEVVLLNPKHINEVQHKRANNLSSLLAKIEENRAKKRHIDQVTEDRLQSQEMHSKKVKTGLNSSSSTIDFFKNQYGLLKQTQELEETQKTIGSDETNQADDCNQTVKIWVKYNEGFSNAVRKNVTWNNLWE", "UniProt O76922, sequence (whole entry, looked up)": "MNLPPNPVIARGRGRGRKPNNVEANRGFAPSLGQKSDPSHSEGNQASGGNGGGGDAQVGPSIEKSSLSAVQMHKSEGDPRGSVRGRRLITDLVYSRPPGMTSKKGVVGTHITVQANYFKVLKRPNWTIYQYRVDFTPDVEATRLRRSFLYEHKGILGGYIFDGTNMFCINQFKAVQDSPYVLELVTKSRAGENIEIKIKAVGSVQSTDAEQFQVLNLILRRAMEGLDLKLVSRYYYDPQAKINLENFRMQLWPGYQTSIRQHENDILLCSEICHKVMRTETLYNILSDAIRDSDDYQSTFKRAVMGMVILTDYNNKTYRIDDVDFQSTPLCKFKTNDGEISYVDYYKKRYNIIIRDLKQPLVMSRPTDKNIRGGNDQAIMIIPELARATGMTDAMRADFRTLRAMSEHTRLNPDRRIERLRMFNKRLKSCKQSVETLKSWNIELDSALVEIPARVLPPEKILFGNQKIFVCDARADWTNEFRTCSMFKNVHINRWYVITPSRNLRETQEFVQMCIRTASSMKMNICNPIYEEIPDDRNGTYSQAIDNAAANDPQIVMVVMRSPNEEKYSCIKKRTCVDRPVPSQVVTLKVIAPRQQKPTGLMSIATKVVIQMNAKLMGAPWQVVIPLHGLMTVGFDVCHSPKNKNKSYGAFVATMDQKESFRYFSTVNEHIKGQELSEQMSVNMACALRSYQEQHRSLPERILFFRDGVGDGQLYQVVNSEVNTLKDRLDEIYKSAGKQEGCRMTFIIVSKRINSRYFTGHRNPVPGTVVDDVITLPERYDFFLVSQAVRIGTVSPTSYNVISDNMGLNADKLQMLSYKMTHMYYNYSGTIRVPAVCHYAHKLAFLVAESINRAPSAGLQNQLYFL"}
{"Substance": "ARTKQTARKSTGGKA (H3 peptide residues 1-x; K9me3, N-terminal fluorescein)", "partner": "CBX7 8-62 D50C/R52D (Homo sapiens, UniProt O95931)", "assay": "FP", "system": "peptide", "binding": "binds"}
{"Substance": "B1 (CCDC32 101-179)", "partner": "Ap2m1 122-435 (Mus musculus, UniProt P84091)", "assay": "pull-down", "binding": "binds"}
{"Substance": "PARRSEELVAEAHNLCTLLENAIQDTVREQDQSFTALDWSWLQTE (IKBKB 701-745 K703R/K704R (Homo sapiens, UniProt O14920); sequence looked up)", "partner": "T1, NEMO 50-113 T50E/L55R/R75V/C76S/E78R/C95A/R106E/E110V", "assay": "NMR titration", "system": "peptide", "setting": "pH 7.4, 308 K", "binding": "binds"}
{"Substance": "aceF (Escherichia coli, UniProt P06959)", "partner": "aceE (Escherichia coli, UniProt P0AFG8)", "assay": "negative-stain EM, thermal unfolding", "binding": "binds"}
{"Substance": "ASPRRR (phosphopeptide; N-acetyl, pS2, C-terminal amide)", "partner": "Cdc14a 1-345 C278S (Mus musculus, UniProt Q6GQT0-1)", "assay": "crystal structure", "system": "peptide", "binding": "binds"}
{"Substance": "B2 (RBCK1 260-510)", "partner": "linear di-ubiquitin two Ub units (UniProt P0CG48)", "assay": "ITC", "setting": "25 °C", "binding": "binds"}
{"Substance": "B3 (POL30 1-258)", "partner": "CTF18 (Saccharomyces cerevisiae, UniProt P49956)", "assay": "cryo-EM", "binding": "binds"}
{"Substance": "B4 (TFC1 1-649)", "partner": "TFC4 1-1025 (Saccharomyces cerevisiae, UniProt P33339)", "assay": "cryo-EM", "binding": "binds"}
{"Substance": "B5 (Ncoa1 260-369)", "partner": "NR4A2 1-165 L46R (Homo sapiens, UniProt P43354)", "assay": "pull-down", "binding": "binds"}
{"Substance": "aceF (Escherichia coli, UniProt P06959)", "partner": "aceE 2-887 (Escherichia coli, UniProt P0AFG8)", "assay": "class averages, 2D, cryo-EM", "binding": "binds"}
{"Substance": "B6 (dnaA/forked oriC DNA ATP-bound)", "partner": "dnaB (Escherichia coli, UniProt P0ACB0)", "assay": "pull-down", "binding": "binds"}
{"Substance": "aub (Drosophila melanogaster, UniProt O76922)", "partner": "tud (Drosophila melanogaster, UniProt P25823)", "assay": "pull-down", "system": "not purified", "binding": "binds"}
{"Substance": "B7 (OpcA C410S/C192S)", "partner": "zwf 1-509 (Synechocystis sp. PCC 6803, UniProt P73411)", "assay": "BLI", "binding": "binds"}
{"Substance": "AAAAAAGDSDSWDADAFSVEDPVRKVGGGGTAGGDRWEGEDEDEDVKD (EIF3J/GST 3-50 (Homo sapiens); Alexa Fluor 546 label; sequence looked up)", "partner": "eIF3 octamer PCI/MPN core 5-654 (Homo sapiens, UniProt Q14152)", "assay": "EMSA", "binding": "binds"}
{"Substance": "B8 (VIP1)", "partner": "FASS (Arabidopsis thaliana, UniProt Q9FEE2)", "assay": "pull-down", "binding": "binds"}
{"Substance": "B9 (GP1BA 17-306 D235Y/M239V)", "partner": "VWF mature, plasma-derived (Homo sapiens, UniProt P04275)", "assay": "ELISA", "binding": "binds"}
{"Substance": "B10 (NOTCH4 276-511)", "partner": "DLL4 27-400 N257P/T271L/F280Y/S301R/Q305P (Homo sapiens, UniProt Q9NR61)", "assay": "SPR", "binding": "binds"}
{"Substance": "B11 (ELM1)", "partner": "GIN4 (Saccharomyces cerevisiae, UniProt Q12263)", "assay": "pull-down", "binding": "binds"}
{"Substance": "B12", "partner": "EMC7 N-terminal ALFA tag M214C (Homo sapiens, UniProt Q9NPA0)", "assay": "cross-linking", "binding": "binds"}
{"Substance": "B13 (CLNS1A 2-237)", "partner": "PRMT5/WDR77 fragment (Homo sapiens)", "assay": "fluorescence polarization", "binding": "binds"}
{"note": "Some of these lines once more:"}
{"Substance": "B3 (POL30 1-258)", "partner": "CTF18 (Saccharomyces cerevisiae, UniProt P49956)", "assay": "cryo-EM", "binding": "binds"}
{"Substance": "B12", "partner": "EMC7 N-terminal ALFA tag M214C (Homo sapiens, UniProt Q9NPA0)", "assay": "cross-linking", "binding": "binds"}
